Results pooled from the literature.
Protocols differ between the studies behind these lines. Numbers after ± are the reported error.
Mapk1: Mitogen-activated protein kinase 1 (Mapk1, Rattus norvegicus, UniProt P63086)
UniProt P63086, sequence (whole entry, looked up): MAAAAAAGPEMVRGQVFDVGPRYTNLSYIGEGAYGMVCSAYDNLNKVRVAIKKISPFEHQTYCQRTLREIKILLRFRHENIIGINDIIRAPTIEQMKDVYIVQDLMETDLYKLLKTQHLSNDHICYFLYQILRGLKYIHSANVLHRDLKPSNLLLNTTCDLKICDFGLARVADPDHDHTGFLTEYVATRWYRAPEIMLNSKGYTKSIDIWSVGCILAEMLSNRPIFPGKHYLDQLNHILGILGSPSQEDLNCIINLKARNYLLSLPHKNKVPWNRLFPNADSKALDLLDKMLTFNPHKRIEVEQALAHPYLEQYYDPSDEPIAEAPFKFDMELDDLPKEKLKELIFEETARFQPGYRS
UniProt P06276, sequence (whole entry, looked up): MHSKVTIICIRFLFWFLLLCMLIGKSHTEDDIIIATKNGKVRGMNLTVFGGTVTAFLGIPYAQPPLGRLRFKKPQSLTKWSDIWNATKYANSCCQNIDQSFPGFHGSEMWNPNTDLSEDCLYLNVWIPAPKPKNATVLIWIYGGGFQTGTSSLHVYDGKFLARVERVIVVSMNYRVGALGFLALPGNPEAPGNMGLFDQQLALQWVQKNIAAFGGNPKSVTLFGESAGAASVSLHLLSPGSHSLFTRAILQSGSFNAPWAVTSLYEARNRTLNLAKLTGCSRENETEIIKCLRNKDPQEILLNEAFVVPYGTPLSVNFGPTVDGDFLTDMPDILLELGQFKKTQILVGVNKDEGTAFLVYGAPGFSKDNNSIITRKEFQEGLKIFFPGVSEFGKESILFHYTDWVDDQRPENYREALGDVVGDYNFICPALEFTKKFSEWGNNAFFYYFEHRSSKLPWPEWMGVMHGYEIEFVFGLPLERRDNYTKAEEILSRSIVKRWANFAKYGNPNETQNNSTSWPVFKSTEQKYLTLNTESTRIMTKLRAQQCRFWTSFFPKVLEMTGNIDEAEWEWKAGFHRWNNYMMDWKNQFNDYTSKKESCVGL
UniProt P23739, sequence (whole entry, looked up): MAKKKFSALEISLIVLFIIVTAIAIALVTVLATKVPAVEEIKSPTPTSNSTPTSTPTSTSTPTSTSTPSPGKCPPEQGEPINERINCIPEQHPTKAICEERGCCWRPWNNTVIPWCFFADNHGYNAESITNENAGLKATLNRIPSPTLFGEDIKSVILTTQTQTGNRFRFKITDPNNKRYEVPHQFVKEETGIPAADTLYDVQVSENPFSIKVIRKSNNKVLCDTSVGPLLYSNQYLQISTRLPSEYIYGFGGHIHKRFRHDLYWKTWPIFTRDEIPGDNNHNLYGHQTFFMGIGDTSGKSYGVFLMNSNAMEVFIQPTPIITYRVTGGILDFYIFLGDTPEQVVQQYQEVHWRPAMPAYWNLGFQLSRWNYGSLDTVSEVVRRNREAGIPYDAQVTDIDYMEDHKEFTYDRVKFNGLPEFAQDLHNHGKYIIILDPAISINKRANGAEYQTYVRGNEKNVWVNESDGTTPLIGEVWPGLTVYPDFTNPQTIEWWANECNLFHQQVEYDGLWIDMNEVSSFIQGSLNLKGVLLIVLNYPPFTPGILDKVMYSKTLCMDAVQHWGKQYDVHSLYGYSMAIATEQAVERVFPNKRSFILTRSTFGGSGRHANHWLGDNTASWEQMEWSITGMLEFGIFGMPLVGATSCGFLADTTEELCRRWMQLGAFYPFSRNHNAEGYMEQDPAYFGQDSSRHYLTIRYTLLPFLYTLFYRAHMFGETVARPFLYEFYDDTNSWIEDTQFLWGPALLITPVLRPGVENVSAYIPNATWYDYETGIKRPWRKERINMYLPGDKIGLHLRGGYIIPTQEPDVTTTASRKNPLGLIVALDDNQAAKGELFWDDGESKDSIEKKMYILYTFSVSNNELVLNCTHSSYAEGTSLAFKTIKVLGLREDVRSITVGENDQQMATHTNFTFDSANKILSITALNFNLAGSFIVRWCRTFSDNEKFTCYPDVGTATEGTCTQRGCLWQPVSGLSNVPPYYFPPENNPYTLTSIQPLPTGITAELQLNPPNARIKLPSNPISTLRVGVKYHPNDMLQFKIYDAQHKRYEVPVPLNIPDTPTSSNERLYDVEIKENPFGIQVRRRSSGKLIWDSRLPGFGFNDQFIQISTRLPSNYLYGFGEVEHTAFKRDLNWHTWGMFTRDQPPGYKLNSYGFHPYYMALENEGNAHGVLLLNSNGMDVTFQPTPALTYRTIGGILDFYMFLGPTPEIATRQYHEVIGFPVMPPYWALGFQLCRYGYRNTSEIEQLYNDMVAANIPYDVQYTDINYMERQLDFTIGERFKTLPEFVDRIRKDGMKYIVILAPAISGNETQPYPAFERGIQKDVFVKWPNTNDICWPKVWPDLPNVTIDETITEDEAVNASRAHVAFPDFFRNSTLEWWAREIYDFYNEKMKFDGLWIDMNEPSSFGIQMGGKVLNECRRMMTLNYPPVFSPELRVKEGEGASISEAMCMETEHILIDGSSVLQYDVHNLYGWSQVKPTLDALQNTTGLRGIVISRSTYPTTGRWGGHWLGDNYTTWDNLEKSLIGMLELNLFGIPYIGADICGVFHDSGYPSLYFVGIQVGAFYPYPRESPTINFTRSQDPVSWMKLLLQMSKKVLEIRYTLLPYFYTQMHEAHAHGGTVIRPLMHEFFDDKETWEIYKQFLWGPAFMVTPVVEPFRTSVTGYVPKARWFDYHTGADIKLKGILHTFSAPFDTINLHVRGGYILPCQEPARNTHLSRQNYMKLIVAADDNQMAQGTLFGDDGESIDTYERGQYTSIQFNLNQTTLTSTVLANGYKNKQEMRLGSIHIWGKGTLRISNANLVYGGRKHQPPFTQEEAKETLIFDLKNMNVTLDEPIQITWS
UniProt P10275, sequence (whole entry, looked up): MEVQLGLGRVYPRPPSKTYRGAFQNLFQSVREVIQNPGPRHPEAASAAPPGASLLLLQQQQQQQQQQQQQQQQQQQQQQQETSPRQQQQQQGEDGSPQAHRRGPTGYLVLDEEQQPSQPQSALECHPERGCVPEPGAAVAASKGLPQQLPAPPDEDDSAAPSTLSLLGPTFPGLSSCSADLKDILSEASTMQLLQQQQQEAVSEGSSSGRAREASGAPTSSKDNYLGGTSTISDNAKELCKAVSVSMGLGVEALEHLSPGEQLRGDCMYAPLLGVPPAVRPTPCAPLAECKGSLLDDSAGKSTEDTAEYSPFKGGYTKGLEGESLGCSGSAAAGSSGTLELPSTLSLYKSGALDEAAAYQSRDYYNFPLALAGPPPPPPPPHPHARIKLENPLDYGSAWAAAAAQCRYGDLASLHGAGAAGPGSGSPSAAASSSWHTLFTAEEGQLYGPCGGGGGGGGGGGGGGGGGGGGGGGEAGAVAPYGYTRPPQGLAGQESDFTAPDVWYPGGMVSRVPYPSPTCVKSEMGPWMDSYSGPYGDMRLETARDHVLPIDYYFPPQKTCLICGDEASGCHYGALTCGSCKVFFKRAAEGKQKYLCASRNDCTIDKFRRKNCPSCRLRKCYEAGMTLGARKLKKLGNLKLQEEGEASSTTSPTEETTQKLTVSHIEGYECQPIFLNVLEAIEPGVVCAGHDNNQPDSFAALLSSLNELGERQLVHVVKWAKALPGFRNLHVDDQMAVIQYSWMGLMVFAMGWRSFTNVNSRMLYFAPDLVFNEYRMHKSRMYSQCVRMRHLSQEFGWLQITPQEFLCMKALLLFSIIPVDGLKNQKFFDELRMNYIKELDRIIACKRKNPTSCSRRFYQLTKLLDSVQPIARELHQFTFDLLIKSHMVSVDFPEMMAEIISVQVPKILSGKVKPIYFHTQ
UniProt Q9HB89, sequence (whole entry, looked up): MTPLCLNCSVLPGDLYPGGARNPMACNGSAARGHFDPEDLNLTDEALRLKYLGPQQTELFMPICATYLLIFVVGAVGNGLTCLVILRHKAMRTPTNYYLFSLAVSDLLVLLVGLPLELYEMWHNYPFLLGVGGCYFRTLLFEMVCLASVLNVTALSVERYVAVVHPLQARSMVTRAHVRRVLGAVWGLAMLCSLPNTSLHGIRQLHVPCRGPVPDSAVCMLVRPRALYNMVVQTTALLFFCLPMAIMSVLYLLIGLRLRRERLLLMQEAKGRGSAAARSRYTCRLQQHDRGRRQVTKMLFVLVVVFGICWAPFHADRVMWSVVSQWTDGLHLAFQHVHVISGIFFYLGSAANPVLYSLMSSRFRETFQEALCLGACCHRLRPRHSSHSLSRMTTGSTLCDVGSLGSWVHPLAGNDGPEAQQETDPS
UniProt P35462, sequence (whole entry, looked up): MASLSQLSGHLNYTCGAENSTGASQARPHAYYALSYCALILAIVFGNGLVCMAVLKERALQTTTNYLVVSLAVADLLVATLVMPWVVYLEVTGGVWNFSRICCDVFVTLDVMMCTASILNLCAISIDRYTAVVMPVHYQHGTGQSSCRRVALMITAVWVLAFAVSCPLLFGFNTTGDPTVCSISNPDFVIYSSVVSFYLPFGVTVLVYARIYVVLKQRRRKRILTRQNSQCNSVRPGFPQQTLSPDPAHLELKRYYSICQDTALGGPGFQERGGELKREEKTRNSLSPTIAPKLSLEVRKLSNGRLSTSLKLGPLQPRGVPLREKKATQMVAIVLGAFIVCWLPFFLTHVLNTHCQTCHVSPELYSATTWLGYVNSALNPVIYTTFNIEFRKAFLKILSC
UniProt P00915, sequence (whole entry, looked up): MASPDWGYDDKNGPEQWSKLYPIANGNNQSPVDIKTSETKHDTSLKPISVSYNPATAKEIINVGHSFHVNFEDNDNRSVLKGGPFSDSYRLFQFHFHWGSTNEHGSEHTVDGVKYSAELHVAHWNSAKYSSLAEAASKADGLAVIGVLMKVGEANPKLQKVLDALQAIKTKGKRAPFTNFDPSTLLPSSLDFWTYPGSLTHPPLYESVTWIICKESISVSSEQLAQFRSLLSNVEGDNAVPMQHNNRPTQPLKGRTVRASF

Structure (SMILES)	target	assay	test system	setting	IC50 [nM]
CC(C)C[C@H](NC(=O)[C@H](CC(=O)O)NC(=O)[C@@H](N)CC(N)=O)C(=O)N1CCC[C@H]1C(=O)N[C@@H](Cc1ccccc1)C(=O)N[C@H](CCC(=O)O)C(=O)N[C@@H](Cc1ccccc1)C(N)=O	Transcriptional regulator PlcR (Bacillus thuringiensis, UniProt A0ACM8Q0N2)	reporter gene, inhibitor, lacZ reporter	407 Cry−	1 h, phase, late exponential, added at	1260 ± 174
CC(C)C[C@H](NC(=O)[C@H](CCCNC(=N)N)NC(=O)[C@H](CC(C)C)NC(=O)[C@H](Cc1ccc(O)cc1)NC(=O)[C@H](CCCCN)NC(=O)[C@H](Cc1c[nH]cn1)NC(=O)[C@H](C)NC(=O)[C@H](CCCCN)NC(=O)[C@H](CCCNC(=N)N)NC(=O)[C@@H]1CCCN1C(=O)[C@H](CCCCN)NC(=O)[C@H](CCCNC(=N)N)NC(=O)[C@H](C)NC(=O)[C@@H](N)Cc1ccc(O)cc1)C(=O)N[C@@H](CO)C(=O)N[C@@H](CCCNC(=N)N)C(=O)O	Mapk1	enzyme activity, inhibitor, fluorescence	–	pH 7.4	35500
Cc1[nH]c(C)c(S(=O)(=O)Nc2ccccc2)c1C(=O)N1CCCC1	DRD3 (Homo sapiens, UniProt P35462)	β-arrestin recruitment, antagonist, PathHunter	–	together with: dopamine EC80	> 100000
CC[C@H](C)[C@H](NC(=O)CNC(=O)[C@H](C)NC(=O)[C@H](CCSC)NC(=O)[C@H](CCCNC(=N)N)NC(=O)[C@H](CCCCN)NC(=O)[C@H](Cc1c[nH]c2ccccc12)NC(=O)[C@H](CO)NC(=O)[C@H](CC(C)C)NC(=O)[C@H](CS)NC(=O)[C@H](C)NC(=O)[C@@H](N)Cc1ccc(O)cc1)C(=O)N[C@@H](Cc1ccccc1)C(=O)N[C@@H](Cc1ccccc1)C(=O)N[C@@H](CC(C)C)C(=O)N1CCC[C@H]1C(=O)O	Mapk1	enzyme activity, inhibitor, fluorescence	–	pH 7.4	12100
O=S(=O)(F)c1cccc(S(=O)(=O)Nc2ccc(C3CC3)c(F)c2)c1	GTPase KRas (KRAS, Homo sapiens, UniProt P01116)	SOS1-coupled RAF binding, AlphaScreen	–	24 h	141000 ± 12000
Cc1cc(O)c2c(c1)OC(C)(C)c1ccc(C)cc1-2	Si (Rattus norvegicus, UniProt P23739)	enzyme activity, inhibitor, absorbance	–	–	590000
COc1cc(C[C@H](C)[C@H](C)Cc2ccc3c(c2)OCO3)ccc1O	Cholinesterase (BCHE, Homo sapiens, UniProt P06276)	enzyme activity, inhibitor, Ellman	–	–	> 100000
CCCCCCCCCCCCCCCCCC(=O)NC[C@H]1CC[C@H](C(=O)N[C@@H](CCC(=O)NCCCOCCOCCOCCCNC(=O)COCC(=O)N[C@@H](Cc2ccc(O)cc2)C(=O)NC(C)(Cc2ccccc2)C(=O)N[C@@H](CC(C)C)C(=O)N[C@@H](CCCC)C(=O)N[C@@H](CCCNC(=N)N)C(=O)N2CCC[C@H]2C(=O)N[C@@H](CCCNC(=N)NC)C(=O)N[C@@H](CC(N)=O)C(N)=O)C(=O)O)CC1 (stereo partly drawn)	NMUR1 (Homo sapiens, UniProt Q9HB89)	β-arrestin recruitment, antagonist, PathHunter luminescence	–	30 min preincubation, together with: 0.3 nM human NMU-25	29
Cc1ccc(S(=O)(=O)Oc2ccc(/C=N/NS(=O)(=O)c3ccc(Cl)cc3)cc2)cc1	CA1 (Homo sapiens, UniProt P00915)	enzyme activity, inhibitor, absorbance	–	–	16
C[C@]12CC[C@H]3[C@@H](CC[C@H]4C[C@H](O)CC[C@@]43C)[C@@H]1CC(=O)C2	Androgen receptor (AR, Homo sapiens, UniProt P10275)	nuclear translocation, antagonist	–	–	120
Cc1nc2ccc(-c3ccc(OC(F)(F)F)cc3)cc2c(O)c1C#N	PFF0160c (Plasmodium falciparum, UniProt Q08210, E182D)	enzyme activity, inhibitor, absorbance	–	–	1790
C=C1NC(=O)CNC(=O)[C@H](CCCNC(=N)N)NC(=O)[C@H](Cc2ccc(O)cc2)NC(=O)[C@H](CC(C)C)NC(=O)[C@H](CO)NC(=O)[C@H](CCCCN)NC(=O)[C@H](CC(N)=O)NC(=O)CNC(=O)[C@H](Cc2ccccc2)NC(=O)[C@H](Cc2c[nH]c3ccccc23)NC(=O)[C@H](Cc2c[nH]c3ccccc23)NC(=O)c2ccc(-c3nc(C(=O)OC)cs3)nc2-c2csc1n2	TNIK (Homo sapiens, UniProt Q9UKE5)	enzyme activity, inhibitor, ADP detection	–	–	1700

Repeated from above:
Structure (SMILES)	target	assay	test system	setting	IC50 [nM]
Cc1nc2ccc(-c3ccc(OC(F)(F)F)cc3)cc2c(O)c1C#N	PFF0160c (Plasmodium falciparum, UniProt Q08210, E182D)	enzyme activity, inhibitor, absorbance	–	–	1790
